Experimental data pooled from the literature.
Each numbered part is a random draw from the data of one study; scales do not carry over between parts. Substitutions count along the parent as printed.

Series 1
Target: Fragile X messenger ribonucleoprotein 1, C-terminal low-complexity region (Fmr1, Mus musculus, UniProt P35922)
Technique: RNA Bind-n-Seq
Molecule type: RNA
Matrix: in vitro
Concentration: 200 nM
Setting: whole 134-nt RNA, ends assumed
With: 150 mM LiCl
Reference: input library
Reading: higher = stronger binding
All molecules: 7-deaza-guanosine replaces G
Constant ends, left off below: GGGAGUUCUACAGUCCGACGAUC … UGGAAUUCUCGGGUGUCAAGG
| Oligonucleotide | log2 enrichment |
| --- | --- |
| GCAGGAAGUAAAAACAAAUGGAAAUGCUUCGGAUAGUGGCAGGGGUGGGGGUUGCUAAGGAAAGCGUGGGAUGGGAGUGGGUAAAGAGUU | 1.36 |
| UGGCCCUGGUGGCAUGCGGGGAGGAAGAGGUGGCCUCAUGGAUCGUGGUGGUCCCCGUGGAAUGUUCAGAGGUGGCCGUGGUGGAGACAG | -0.238 |
| CUCAAGUCCUGUGCUACACAUCGUAUGUACCGAAUCGGAAAGGAGGAAAAAGGAAAGUAUUAUGUUACGCCGUUCGGAUCUGCACUUCCA | -0.812 |
| CAAGUCCUGUGCUACACAUCGUAUGUACCGAAUCGGGCCCCGGCCCCGGGCCCCGGAAAGUAUUAUGUUACGCCGUUCGGAUCUGCACUU | -2.63 |
| AAGUCCUGUGCUACACAUCGUAUGUACCGAAUCGGGAAAAAAAGGGAGGGUUUGGGAAAGUAUUAUGUUACGCCGUUCGGAUCUGCACUU | -1.99 |
| UUGUCUUCUGAGAUGUUGGGCCCCUCUUGGGAUGGAGAUGAAGCAGAAUCCACUGGUGAAAUCAUUAGACUUGGAGACACAGCACACACC | -0.291 |
| UGGGAGGUGGAUUUUGUUUAUUUUUUUAUCUCAUUUCCAGGGGUGGGAAUUUUUUUUUAAUAUGUGUCAUGAAUAAAGUUGUUUUUGAAA | -0.521 |

Series 2
Target: RNA binding protein fox-1 homolog 2, RRM domain, GST-SBP tag (RBFOX2, Homo sapiens, UniProt O43251-10, residues 100-194)
Technique: RNA Bind-n-Seq
Molecule type: RNA
Matrix: in vitro
Concentration: 365 nM
Setting: natural RNA segment, single round, ends assumed
Reference: no-protein control
Reading: higher = stronger binding
Constant ends, left off below: GGGAGUUCUACAGUCCGACGAUC … UGGAAUUCUCGGGUGCCAA
Target sequence (chain): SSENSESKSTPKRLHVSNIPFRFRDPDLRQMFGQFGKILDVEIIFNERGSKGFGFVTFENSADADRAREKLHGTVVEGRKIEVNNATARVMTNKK
| Oligonucleotide | RBNS enrichment (R) |
| --- | --- |
| GCCUUUGAGAAUGGGGAGAAACAGCCUGGGCUGGGGCUACAGGUCUGUCACUAUGCUCUCUUGCCUUCAGACAGACCAUUCUGAAUUCUCUAAAGGGAAAGGGCUUUUGC | 0.456 |
| GGGGGCGCCCUGUAUUUUGGGGGCCUCUUCCAGGCACCCACAGCCCUGACGGAGCCCCUGGAGGUGGAGCACGUGGUGGGCCAGGGUGUCCUCCACCGUGGCGGCCAGCU | 0.495 |
| AUGUGCUUUAACCACUGCUGCAAAAGAGACAAGUCUGCAUUUAUUUGUGCAGGAAACCAGCCAUUUAAUUGUUCUAGAGUUUUAGCAUUUAAAAAUCGUAUGAAAGUCUA | 0.341 |
| AAAAACCAUAAUUGCUUGUGGUGAAACGAAGCAGUCUUCAUGUUAAGUAGCAAUGGUUAUUUUUAUUGGUAGUAACUGAACAGUGUUUUGCAAUUUGUGAAACAGUGUAU | 0.295 |
| CUUAUGCAGUGUAGUGUUCCCUUUCUGAAGACCUCAUUGUAAGACAGCUUUAUGUGCAUAGUGCUCAUCUGUAGCUAGGGCACACCAAAGGUCAUAUUUUAACUCUUUAU | 0.408 |
| AAAGUUUGAGAUUAUCCUAGGCUACAUAGCAAGGUGAUUUCAAGAAAGAGAUGAAGGAAGGAAGGAAGAGAAAAACAAAGUCAUUUGUUCAUAGUGAGGUCUCCAGCUAU | 0.31 |
| CAAGUUUAUAUGUAAAGACAUAACUGCCCUUAGUCAUGAAAUUGUUGUGACCUCUACUUUUUGUCACUAAUAGCCUACAUUCAAGUGCCUGUGUUUUUUCAUCUUGUUUA | 0.71 |
| UCCCGUGGCUAGAUCCAGAGCAGAUUCAGCCGGCUCAUUUCCAAGGGCUGGGCCACUGCACAGUUUGUCUGUCCCCGUUGGACUCUUGAGCUCCUCUGGGAAGGCCUUUC | 0.247 |
| AUAAAUUCAAAUAUAUUUUUCUCCAAACUGCCAAAGGGAAAGUAGAAUUGUGGAGGGAAAUGAAAUAUCCAUGUACCAGGCCAGGCAGAUGGUCAGUUAGGAUGACAAUA | 0.795 |
| GGAGGAGGAGCCAGGCAGCAGGGCCUUCCUGACCAACAGCCAGCUCUGUCCUUCCCCCCAGGAAACACAUGUUCAUUUGUGUGAUCAUGUAUAGACCUCAGAACGGAAGA | 0.248 |
| UUUUAAAAAAUGUAUUCUACUGUAACAAGUUAAUAAAGAGAUUUUUUAAAAAACUAUAAACUAGAAAUUGAGAGUCUUGCAUUCUCUUUUGUAUUUGAUUAUUGUGUCUG | 0.51 |
| UCUCUCUGCCCACUCGGGUCUGCAGACCUGGUUCCCACUGAGGCCCUUUGCAGGAUGGAACUACGGGGCUUACAGGAGCUUUUGUGUGCCUGGUAGAAACUAUUUCUGUU | 0.277 |

Series 3
Target: RING finger protein unkempt homolog, zinc fingers 1-6, GST-SBP tag (UNK, Homo sapiens, UniProt Q9C0B0, residues 30-357)
Sequence of UniProt Q9C0B0 (30-357, looked up): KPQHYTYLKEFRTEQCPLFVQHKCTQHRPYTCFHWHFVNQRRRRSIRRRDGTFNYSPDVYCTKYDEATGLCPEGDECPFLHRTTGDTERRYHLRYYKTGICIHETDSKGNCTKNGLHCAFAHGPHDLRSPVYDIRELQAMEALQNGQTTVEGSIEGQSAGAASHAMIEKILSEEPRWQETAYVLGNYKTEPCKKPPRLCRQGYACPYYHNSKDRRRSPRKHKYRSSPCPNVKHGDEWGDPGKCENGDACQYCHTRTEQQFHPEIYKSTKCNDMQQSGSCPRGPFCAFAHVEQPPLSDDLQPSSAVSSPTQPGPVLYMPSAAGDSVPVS
Technique: RNA Bind-n-Seq
Molecule type: RNA
Matrix: in vitro
Concentration: not given
Setting: RNA with constant flanks, human-mouse chimeric sites, ends assumed
Reference: input RNA pool
Reading: higher = stronger binding
Constant ends, left off below: GGGAGUUCUACAGUCCGACGAUC … CAACAGAGGAUUGAGCAUCA
| Oligonucleotide | bound/input enrichment [ratio] |
| --- | --- |
| GCAGGAUCUUCUAAGUACCAGUGGGACAUUAUGAAAUCCCUUGGGCUGUCUGAUGAAGACAUAGUGAAGUUUUCUGAAGCAGAGCACUGGCUUGAUUAUUUCCCACCACUGGCCGUUCAG | 0.224 |
| GAAACAUUUAAAUUUAAAGAAGCUGUUGUUCUAGGAAGUACGGACUUUCUAGAAGAUGAUAUAGAAAAAAUUGUAGAAGAACUGGGGAAAGAGUAUAAGGGCAACGCUUAUCAUUUAAUG | 3.01 |
| AAAUCGUGUGUGUCAAAUAUUGAAAGUGCUUUAUCUACACUCCAGUAUGUAAGCAGUAUAGUAGUUUCUUUAGAGAAUAGGUCAGCCAUUGUGAAGUACAAUGCAAGCUUAGUCACUCCA | 11.5 |
| UUUGUUUUUGUAACUUAUCUGUAAAAGUCCCCCCCCCUACUGUCAAAAAAUAUGCAUGUAUAGUAAUUAGGACUUCAUUCCUCCAUGUUUUCUUCCCUUAUCUUACUGUCAUUGUCCUUA | 1.84 |
| AUGGAGAAGGAUUCUCUGCCCCGCUUUGUGCGCUCUGAGUUUUAUCAGGAGCUAAUCAAGUAGUCAUCUGGUCAGGCUUCCAAAAGUUGCCCUGUGAGUUGAGUUACAUAAUAACCCGCA | 0.153 |
| CAGCCUCAGAGCCCAGACUUCCUGGAUAUUACCAACCCCAAAGCCGUAUUAGAAAAUGCAUUGAGAAACUUCGCCUGUCUGACGACUGGGGAUGUGAUUGCUAUCAACUACAAUGAGAAG | 0.498 |
| GCUCUUGGGAAUGUAAUCAGCGCCUUGGGGGACAAGAGCAAGAGAGCCACCCAUGUCCCUUACAGAGACUCUAAGCUGACAAGACUCCUACAGGAUUCCCUCGGGGGUAACAGCCAAACC | 0.169 |
| AAUGUUCUUAAUAUUUUUGAAUAAAUGUAAAACCAUGGUCUGCUUUUGGUACAACACGCAUUAAUAAAAGGUUAAGUUUUGUUUUCCACUGAAGUACUAUUUAACAUCUCAGAAAAAAAC | 0.147 |
| AAUGUUCUUAAUAUUUUUGAAUAAAUGAAGCUAAAAUGUCUGCUUUUGGUACAACACGCAUUAAUAAAAGGUUAAGUUUUGUUUUCCACUGAAGUACGUAAUACUUACUCAGAAAAAAAC | 0.353 |

Series 4
Target: CCND2, cyclin fold, Cln2 fusion (human)
Technique: yeast growth competition, sequencing
Matrix: yeast
Setting: weak parent motif
Reference: not given
Reading: higher = stronger binding
Starting sequence: CCP110 docking peptide (human); EKVKRRLDLDIDG
| Variant | normalised enrichment score |
| --- | --- |
| R5K L9F | 0.281 |
| I11A | 0.174 |
| D8A | -0.068 |
| R5A | 0.0837 |
| L7A | -0.126 |
| K2A | 0.0987 |
| V3A | 0.14 |

Series 5
Target: Histone acetyltransferase KAT6A, winged helix 2, GST fusion (KAT6A, Homo sapiens, UniProt Q92794, residues 85-181)
Technique: protein binding microarray
Molecule type: double-stranded DNA, one strand shown
Matrix: in vitro
Concentration: not given
Setting: 8-mer, flanks averaged, mean of 2 arrays, mostly near background
Reference: not given
Reading: higher = stronger binding
Residues (chain): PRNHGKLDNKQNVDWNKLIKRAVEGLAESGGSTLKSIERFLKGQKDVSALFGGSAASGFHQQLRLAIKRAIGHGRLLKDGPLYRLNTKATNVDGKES
| Oligonucleotide | E-score |
| --- | --- |
| CAGGGGTA | -0.148 |
| GATCAAGA | 0.147 |
| AGATACCT | -0.132 |
| CCTACTAG | -0.179 |
| GTCCCCAC | -0.114 |
| GTGCCGGA | 0.0795 |
| GACTCAGA | -0.0939 |
| GGGCCTCA | 0.179 |
| AGAGGATG | -0.163 |
| GCCATAGA | -0.103 |
| AGTGGCAT | 0.107 |
| ATAGCTGG | 0.00049 |
| ACCAATTC | -0.152 |
| ACGATTAA | -0.00185 |
| CCTAACGC | 0.0295 |
| CGGGTAAG | -0.0894 |
| AGAGGTTG | 0.075 |
| ACGAACGA | 0.0111 |
| TGTCTTAA | 0.0246 |
| GCTCGCAC | 0.217 |
| AGTTCTAA | 0.143 |
| ATTCCGTG | -0.0435 |
| CTCTGGCA | -0.0986 |

Series 6
Target: Max-binding protein MNT, bHLH-zipper, MAX partner unstated (MNT, Homo sapiens, UniProt Q99583, residues 220-300)
Technique: protein-binding microarray
Molecule type: double-stranded DNA, one strand shown
Matrix: in vitro
Concentration: not given
Setting: k-mer, scored over probes, only values ≥0.25
Reading: higher = stronger binding
Target sequence (chain): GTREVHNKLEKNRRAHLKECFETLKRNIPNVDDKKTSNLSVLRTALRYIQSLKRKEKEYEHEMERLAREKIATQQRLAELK
| Oligonucleotide | E-score |
| --- | --- |
| CAGCCATG | 0.276 |
| GCGGACAC | 0.251 |
| ACGCGTTA | 0.301 |
| CCACGTTC | 0.389 |
| GGCGTGAC | 0.35 |
| AGCGTGCA | 0.412 |
| ACGTGTCT | 0.435 |
| ACGCCACG | 0.419 |
| ATGCTCCA | 0.286 |
| ACGTTTAC | 0.274 |
| GCATGGGA | 0.353 |
| CAACCATG | 0.338 |

Other studies, line by line
| Substance | target | assay | system | conditions | scale | quantity | value |
| --- | --- | --- | --- | --- | --- | --- | --- |
| PhoQ, residues 284 288 289 292 302 303 NLALSC | PhoP, residues 12 14 15 18 19 QWHVF (Escherichia coli, UniProt P23836) | Sort-seq, refers to: YFP reporter | E. coli | PhoQ-PhoP variant library, with: 10 µM Mg2+ | reference: high Mg2+ state, higher = stronger signaling | fold induction | 2.36 |

Excerpt of the above (series 6):
| Oligonucleotide | E-score |
| --- | --- |
| ACGTGTCT | 0.435 |
| ACGTTTAC | 0.274 |
| GCATGGGA | 0.353 |
| ATGCTCCA | 0.286 |
| ACGCGTTA | 0.301 |
| CCACGTTC | 0.389 |
| GGCGTGAC | 0.35 |
| GCGGACAC | 0.251 |
| CAGCCATG | 0.276 |
| CAACCATG | 0.338 |
| AGCGTGCA | 0.412 |
